Assay results pooled from the literature.
Protocols differ between the studies behind these lines.
Chain of UniProt O14976 (whole entry, looked up): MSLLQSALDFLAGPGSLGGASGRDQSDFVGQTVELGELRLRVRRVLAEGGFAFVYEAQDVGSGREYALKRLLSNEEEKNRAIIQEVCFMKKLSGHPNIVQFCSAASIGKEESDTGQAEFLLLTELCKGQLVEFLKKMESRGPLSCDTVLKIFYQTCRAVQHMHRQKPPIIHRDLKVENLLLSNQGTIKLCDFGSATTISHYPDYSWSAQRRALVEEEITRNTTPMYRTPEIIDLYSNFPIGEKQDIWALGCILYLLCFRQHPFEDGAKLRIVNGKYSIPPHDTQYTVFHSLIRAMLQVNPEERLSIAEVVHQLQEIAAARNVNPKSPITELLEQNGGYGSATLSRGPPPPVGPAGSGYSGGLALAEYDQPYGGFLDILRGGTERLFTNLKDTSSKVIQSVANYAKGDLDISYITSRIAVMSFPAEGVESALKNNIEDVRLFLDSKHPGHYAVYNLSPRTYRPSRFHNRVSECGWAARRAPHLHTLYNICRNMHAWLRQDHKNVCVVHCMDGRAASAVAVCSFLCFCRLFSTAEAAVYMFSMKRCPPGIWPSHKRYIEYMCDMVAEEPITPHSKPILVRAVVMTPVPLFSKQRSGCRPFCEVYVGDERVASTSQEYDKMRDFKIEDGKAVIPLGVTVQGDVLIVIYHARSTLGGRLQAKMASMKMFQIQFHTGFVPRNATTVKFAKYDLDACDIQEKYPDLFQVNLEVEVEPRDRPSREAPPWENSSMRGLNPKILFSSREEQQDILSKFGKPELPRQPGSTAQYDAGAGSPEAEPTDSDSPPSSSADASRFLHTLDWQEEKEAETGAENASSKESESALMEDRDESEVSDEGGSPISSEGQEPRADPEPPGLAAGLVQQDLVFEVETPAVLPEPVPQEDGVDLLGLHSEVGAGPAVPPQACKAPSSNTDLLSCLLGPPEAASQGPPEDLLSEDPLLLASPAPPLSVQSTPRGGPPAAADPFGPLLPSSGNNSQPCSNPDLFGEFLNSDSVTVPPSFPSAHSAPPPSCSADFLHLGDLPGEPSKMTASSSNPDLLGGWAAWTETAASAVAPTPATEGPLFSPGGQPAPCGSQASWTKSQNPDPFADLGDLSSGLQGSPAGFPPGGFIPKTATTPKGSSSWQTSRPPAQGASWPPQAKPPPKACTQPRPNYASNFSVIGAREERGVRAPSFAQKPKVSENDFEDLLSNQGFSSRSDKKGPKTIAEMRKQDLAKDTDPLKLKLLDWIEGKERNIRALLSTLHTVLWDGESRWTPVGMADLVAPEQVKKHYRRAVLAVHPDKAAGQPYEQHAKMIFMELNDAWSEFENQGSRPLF
Chain of UniProt Q56UN5 (whole entry, looked up): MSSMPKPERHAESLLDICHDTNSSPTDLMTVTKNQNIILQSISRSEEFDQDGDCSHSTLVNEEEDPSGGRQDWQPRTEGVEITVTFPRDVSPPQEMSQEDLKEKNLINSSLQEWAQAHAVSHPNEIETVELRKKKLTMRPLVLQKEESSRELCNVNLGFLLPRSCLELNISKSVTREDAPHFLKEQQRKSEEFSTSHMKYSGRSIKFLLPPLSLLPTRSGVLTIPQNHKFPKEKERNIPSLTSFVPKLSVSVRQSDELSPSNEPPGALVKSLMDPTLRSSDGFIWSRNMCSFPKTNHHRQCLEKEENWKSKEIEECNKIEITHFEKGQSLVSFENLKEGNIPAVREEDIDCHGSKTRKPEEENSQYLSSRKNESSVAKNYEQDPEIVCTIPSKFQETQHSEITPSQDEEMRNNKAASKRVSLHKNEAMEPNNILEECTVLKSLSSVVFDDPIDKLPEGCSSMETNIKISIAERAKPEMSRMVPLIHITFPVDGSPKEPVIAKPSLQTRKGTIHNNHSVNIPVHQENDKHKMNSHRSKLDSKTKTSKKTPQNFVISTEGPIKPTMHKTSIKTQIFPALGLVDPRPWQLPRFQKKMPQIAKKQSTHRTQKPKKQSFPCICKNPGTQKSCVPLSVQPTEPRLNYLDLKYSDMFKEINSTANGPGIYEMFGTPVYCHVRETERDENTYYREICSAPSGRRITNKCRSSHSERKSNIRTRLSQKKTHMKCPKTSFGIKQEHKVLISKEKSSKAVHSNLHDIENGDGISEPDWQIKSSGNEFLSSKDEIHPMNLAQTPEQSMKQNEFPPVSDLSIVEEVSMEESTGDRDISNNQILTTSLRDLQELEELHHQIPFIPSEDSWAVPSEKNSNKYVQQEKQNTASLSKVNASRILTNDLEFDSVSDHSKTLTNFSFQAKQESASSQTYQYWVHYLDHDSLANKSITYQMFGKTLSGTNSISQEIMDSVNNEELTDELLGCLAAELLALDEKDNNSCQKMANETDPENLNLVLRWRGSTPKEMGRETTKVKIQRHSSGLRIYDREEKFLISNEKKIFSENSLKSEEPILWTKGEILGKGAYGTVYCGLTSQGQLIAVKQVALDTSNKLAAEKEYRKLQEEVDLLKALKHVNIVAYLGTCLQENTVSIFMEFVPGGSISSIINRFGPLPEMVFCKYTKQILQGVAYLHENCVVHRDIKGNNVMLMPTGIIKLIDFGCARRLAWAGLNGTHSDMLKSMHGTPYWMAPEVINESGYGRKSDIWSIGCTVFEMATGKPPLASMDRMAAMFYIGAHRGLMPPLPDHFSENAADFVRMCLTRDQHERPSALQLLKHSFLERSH
Chain of UniProt O14733 (whole entry, looked up): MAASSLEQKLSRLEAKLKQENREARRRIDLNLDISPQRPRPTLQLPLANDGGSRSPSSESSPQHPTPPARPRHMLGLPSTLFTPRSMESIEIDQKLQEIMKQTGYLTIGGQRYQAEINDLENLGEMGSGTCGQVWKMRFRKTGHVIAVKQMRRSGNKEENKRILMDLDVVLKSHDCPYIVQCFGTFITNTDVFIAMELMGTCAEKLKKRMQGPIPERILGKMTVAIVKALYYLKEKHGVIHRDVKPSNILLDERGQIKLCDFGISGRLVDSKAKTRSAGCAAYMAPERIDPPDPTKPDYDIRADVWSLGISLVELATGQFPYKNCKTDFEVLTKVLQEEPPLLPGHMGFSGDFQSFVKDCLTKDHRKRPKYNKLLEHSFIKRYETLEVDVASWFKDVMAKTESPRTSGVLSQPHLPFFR
Chain of UniProt O14936 (whole entry, looked up): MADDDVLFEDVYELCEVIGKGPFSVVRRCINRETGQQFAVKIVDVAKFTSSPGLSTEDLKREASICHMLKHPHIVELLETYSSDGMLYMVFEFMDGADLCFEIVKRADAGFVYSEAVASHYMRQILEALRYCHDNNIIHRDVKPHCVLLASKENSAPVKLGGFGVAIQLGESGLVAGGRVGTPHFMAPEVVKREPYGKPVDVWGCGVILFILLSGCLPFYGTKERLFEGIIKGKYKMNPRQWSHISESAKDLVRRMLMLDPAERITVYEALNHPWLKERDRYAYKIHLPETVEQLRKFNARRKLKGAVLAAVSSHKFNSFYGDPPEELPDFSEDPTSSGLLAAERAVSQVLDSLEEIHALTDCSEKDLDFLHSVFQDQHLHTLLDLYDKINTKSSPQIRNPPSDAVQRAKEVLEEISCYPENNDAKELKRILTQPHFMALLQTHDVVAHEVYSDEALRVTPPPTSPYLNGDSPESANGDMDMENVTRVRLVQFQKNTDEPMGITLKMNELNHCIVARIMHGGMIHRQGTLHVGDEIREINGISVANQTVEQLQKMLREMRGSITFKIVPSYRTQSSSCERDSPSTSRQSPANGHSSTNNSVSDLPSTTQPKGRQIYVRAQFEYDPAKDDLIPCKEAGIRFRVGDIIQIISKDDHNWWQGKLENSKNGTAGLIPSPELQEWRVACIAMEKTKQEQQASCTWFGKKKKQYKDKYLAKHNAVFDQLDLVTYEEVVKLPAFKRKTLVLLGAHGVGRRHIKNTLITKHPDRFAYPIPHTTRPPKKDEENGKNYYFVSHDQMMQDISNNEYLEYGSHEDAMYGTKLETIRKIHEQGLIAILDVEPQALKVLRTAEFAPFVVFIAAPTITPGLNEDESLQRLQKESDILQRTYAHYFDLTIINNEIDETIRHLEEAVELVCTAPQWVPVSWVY

| Compound | tested on | test | system | conditions | endpoint | result |
| --- | --- | --- | --- | --- | --- | --- |
| Oc1c(Br)cc(Br)cc1-c1[nH]c(Br)c(Br)c1Br | Salmonella enterica | microbial growth | ATCC13311 | – | MIC | 16 µM |
| CCOC(=O)c1c(-c2ccc(OC)cc2)oc2ccc(O)c(CN3CCN(Cc4cn(C[C@H]5O[C@H](O[C@H]6O[C@H](CO)[C@@H](O)[C@H](O)[C@H]6O)[C@H](O)[C@@H](O)[C@@H]5O)nn4)CC3)c12 | Mycolicibacterium smegmatis | microbial growth | MC2155 | 72 h | MIC | 98 µM |
| COc1ncccc1-c1cnn2ccc(N3CCN(C(=O)OC(C)C)CC3)nc12 | Cyclin-G-associated kinase (GAK, Homo sapiens, UniProt O14976) | binding, competition with immobilised ligand | – | 1 µM | remaining binding | 42% |
| COC(=O)c1cc(-c2cccc(NC(=O)Nc3ccc(Cl)c(Cl)c3)c2)on1 | Mycobacteroides abscessus | microbial growth, broth dilution | ATCC19977 | 48 h | MIC | > 64 µg/mL |
| C#CCNC(=O)c1c(-c2ccc(OC)cc2)oc2ccc(O)c(CN3CCCCC3)c12 | Mycolicibacterium smegmatis | microbial growth | MC2155 | 72 h | MIC | 12 µM |
| O=c1c2ccccc2nc(/C=C/c2ccc(O)cc2)n1-c1cccc(O)c1 | Enterococcus faecium | microbial growth, broth dilution | NCTC7171 | – | MIC | > 128 µg/mL |
| COc1ccc(-c2oc3ccc(O)c(CN4CCCCC4)c3c2C(=O)NCc2cn(C[C@H]3O[C@H](O[C@H]4O[C@H](CO)[C@@H](O)[C@H](O)[C@H]4O)[C@H](O)[C@@H](O)[C@@H]3O)nn2)cc1 | Mycolicibacterium smegmatis | microbial growth | MC2155 | 72 h | MIC | 12.6 µM |
| Oc1c(Cl)cc(Cl)cc1-c1[nH]c(Cl)c(Cl)c1Cl | Enterococcus faecalis | microbial growth | ATCC29212 | – | MIC | 32 µM |
| COC(=O)c1cc(-c2cccc(NC(=S)Nc3ccc(C)cc3)c2)on1 | Mycobacteroides abscessus | microbial growth, broth dilution | ATCC19977 | 48 h | MIC | > 64 µg/mL |
| CCOC(=O)c1c(-c2ccc(OC)cc2)oc2ccc(OCc3cn(Cc4ccccc4)nn3)c(CN3CCCCC3)c12 | Mycolicibacterium smegmatis | microbial growth | MC2155 | 72 h | MIC | 37.4 µM |
| Nc1ncc(-c2nc(N3CCOCC3)nc(N3CCOCC3)n2)c(C(F)F)n1 | Dual specificity mitogen-activated protein kinase kinase 7 (MAP2K7, Homo sapiens, UniProt O14733) | binding, competition with immobilised ligand | – | 10 µM | remaining binding | 61% |
| C[C@H]1COc2c(N3CCN(C)CC3)c(F)cc3c(=O)c(C(=O)O)cn1c23 | Acinetobacter baumannii | microbial growth | NCTC13304 | drug-resistant strain | MIC | 8 µg/mL |
| O=c1ccc2nc3ccc(O)cc3oc-2c1 | Serratia marcescens | microbial growth | – | 24 h | MIC | > 32 µg/mL |
| [2H]c1c([2H])c([C@]2([2H])CCCN2C(=O)C(C)(C)Oc2ccc3cn[nH]c3c2)c([2H])c([2H])c1C([2H])([2H])[2H] | Mitogen-activated protein kinase kinase kinase 19 (MAP3K19, Homo sapiens, UniProt Q56UN5) | binding, competition with immobilised ligand | – | 1 µM | remaining binding | 97% |
| COC(=O)c1cc(-c2cccc(NC(=S)Nc3ccc([N+](=O)[O-])cc3)c2)on1 | Mycobacteroides abscessus | microbial growth, broth dilution | ATCC19977 | 48 h | MIC | > 64 µg/mL |
| Cc1nn(C)cc1-c1nc2c(N3CCN(Cc4ccc(Cl)cc4)CC3)c(Cl)cnc2[nH]1 | Peripheral plasma membrane protein CASK (CASK, Homo sapiens, UniProt O14936) | binding, competition with immobilised ligand | – | 1 µM | remaining binding | 84% |
| COC(=O)c1cc(-c2cccc(NC(=S)Nc3cccc(Br)c3)c2)on1 | Mycobacteroides abscessus | microbial growth, broth dilution | ATCC19977 | 48 h | MIC | > 64 µg/mL |
| CCc1ccc(/C=C/c2nc3ccccc3c(=O)n2-c2cccc(O)c2)cc1 | Enterococcus faecium | microbial growth, broth dilution | NCTC7171 | – | MIC | > 128 µg/mL |
| COC(=O)c1cc(-c2cccc(NC(=O)Nc3ccc(Cl)cc3)c2)on1 | Mycobacteroides abscessus | microbial growth, broth dilution | ATCC19977 | 48 h | MIC | > 64 µg/mL |
| O=c1ccc2nc3ccc(OCc4ccc([N+](=O)[O-])o4)cc3oc-2c1 | Enterobacter cloacae | microbial growth | – | 24 h | MIC | > 32 µg/mL |

Some of these lines once more:
| Compound | tested on | test | system | conditions | endpoint | result |
| --- | --- | --- | --- | --- | --- | --- |
| COC(=O)c1cc(-c2cccc(NC(=O)Nc3ccc(Cl)cc3)c2)on1 | Mycobacteroides abscessus | microbial growth, broth dilution | ATCC19977 | 48 h | MIC | > 64 µg/mL |
| Oc1c(Br)cc(Br)cc1-c1[nH]c(Br)c(Br)c1Br | Salmonella enterica | microbial growth | ATCC13311 | – | MIC | 16 µM |
| COC(=O)c1cc(-c2cccc(NC(=S)Nc3ccc(C)cc3)c2)on1 | Mycobacteroides abscessus | microbial growth, broth dilution | ATCC19977 | 48 h | MIC | > 64 µg/mL |
